Results from different studies.
Each numbered part is a random draw from the data of one study; scales do not carry over between parts. Changes are numbered by the printed parent chain.
UniProt Q9H1R3, sequence (whole entry, looked up): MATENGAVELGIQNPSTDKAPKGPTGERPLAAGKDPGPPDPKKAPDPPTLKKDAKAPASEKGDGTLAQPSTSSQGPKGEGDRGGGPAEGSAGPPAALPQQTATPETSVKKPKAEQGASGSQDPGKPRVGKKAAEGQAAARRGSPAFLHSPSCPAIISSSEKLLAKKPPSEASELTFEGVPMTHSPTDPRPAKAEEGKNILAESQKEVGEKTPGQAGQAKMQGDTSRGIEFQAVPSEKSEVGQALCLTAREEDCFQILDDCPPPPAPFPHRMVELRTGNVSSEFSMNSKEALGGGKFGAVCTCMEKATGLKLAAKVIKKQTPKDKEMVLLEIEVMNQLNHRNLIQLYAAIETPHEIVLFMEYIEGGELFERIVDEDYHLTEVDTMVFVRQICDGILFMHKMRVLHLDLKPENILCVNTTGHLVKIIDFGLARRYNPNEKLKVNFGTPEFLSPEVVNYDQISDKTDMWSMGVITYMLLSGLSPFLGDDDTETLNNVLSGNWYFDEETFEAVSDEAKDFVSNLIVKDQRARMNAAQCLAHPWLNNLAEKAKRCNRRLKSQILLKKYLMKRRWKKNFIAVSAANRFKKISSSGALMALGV
UniProt O00506, sequence (whole entry, looked up): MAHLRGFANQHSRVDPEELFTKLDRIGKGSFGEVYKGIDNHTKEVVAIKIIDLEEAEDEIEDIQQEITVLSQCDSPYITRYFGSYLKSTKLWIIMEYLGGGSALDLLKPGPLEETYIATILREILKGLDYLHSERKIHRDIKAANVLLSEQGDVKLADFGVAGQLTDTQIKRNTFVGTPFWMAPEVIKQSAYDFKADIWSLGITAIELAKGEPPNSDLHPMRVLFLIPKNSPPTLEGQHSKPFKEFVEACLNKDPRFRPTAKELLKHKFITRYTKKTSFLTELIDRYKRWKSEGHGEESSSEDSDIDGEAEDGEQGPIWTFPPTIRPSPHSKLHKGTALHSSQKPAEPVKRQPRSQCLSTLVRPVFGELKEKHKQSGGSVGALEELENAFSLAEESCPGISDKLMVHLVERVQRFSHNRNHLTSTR
UniProt Q8NEV4, sequence (whole entry, looked up): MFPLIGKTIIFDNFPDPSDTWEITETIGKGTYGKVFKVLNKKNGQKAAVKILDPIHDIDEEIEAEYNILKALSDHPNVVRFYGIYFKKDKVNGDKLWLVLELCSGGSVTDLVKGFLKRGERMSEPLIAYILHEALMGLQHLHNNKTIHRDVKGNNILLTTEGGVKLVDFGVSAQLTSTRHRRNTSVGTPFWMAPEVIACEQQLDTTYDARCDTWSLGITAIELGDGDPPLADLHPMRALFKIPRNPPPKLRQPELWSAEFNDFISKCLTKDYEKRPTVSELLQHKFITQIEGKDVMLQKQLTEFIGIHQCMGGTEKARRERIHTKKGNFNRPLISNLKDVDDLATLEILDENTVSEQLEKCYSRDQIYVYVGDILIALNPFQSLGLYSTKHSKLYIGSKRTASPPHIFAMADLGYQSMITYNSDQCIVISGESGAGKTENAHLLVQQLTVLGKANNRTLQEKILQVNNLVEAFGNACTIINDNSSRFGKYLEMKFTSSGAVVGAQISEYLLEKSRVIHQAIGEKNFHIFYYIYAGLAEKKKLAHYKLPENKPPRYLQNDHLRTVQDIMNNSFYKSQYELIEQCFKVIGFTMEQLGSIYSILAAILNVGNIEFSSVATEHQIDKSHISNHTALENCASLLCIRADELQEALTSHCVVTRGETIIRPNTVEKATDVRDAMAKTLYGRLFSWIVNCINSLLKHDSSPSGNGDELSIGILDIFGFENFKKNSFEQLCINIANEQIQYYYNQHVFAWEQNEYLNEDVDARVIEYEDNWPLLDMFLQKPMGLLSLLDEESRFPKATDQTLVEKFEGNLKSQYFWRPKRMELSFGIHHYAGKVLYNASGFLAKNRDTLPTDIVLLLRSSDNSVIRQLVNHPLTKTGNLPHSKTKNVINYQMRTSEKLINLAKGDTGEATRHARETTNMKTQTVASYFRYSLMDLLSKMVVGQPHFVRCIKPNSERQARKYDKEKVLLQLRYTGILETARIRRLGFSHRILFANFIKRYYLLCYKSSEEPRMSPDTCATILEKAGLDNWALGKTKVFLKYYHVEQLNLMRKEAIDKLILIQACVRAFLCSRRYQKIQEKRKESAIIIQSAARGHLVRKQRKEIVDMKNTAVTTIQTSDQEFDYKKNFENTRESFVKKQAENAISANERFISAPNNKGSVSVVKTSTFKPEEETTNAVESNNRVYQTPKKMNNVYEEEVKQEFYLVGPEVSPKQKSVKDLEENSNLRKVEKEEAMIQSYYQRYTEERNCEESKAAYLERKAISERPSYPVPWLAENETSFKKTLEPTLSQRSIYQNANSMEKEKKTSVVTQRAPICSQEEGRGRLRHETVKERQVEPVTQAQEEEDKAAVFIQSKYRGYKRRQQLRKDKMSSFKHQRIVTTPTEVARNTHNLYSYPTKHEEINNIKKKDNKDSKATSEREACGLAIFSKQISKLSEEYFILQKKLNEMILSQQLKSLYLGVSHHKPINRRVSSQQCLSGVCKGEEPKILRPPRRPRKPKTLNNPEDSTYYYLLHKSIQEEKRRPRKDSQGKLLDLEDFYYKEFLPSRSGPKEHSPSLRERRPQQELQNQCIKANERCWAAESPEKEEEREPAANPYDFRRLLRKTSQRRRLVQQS
UniProt Q9NRM7, sequence (whole entry, looked up): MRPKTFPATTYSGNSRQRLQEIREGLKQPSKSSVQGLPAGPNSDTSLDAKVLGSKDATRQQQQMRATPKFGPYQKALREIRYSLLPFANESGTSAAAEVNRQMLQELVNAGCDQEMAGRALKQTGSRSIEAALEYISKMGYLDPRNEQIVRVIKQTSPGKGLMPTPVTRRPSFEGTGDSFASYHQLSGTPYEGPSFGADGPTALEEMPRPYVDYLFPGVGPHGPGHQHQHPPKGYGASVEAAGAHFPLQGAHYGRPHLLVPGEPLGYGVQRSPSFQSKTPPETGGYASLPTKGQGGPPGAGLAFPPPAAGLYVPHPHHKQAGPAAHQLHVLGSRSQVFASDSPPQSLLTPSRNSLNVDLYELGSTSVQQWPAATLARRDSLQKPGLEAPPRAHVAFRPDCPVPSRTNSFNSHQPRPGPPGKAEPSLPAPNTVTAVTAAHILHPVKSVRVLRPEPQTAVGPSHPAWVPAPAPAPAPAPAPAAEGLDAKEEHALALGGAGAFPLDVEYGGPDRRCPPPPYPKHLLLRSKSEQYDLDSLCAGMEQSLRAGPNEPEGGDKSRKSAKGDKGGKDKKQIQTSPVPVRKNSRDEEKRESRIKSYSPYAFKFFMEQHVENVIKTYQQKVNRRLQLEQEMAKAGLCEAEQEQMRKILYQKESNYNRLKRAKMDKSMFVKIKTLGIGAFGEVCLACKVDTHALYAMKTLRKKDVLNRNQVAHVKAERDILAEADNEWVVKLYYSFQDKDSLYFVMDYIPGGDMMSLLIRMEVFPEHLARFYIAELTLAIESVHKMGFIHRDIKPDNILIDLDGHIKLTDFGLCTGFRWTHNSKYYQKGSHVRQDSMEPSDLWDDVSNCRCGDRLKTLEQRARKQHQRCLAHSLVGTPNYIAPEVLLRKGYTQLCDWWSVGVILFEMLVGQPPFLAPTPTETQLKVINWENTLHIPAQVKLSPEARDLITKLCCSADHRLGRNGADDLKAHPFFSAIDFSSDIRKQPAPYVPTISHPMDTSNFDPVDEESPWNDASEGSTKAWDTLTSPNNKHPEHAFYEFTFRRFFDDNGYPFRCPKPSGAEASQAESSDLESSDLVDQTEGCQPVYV
UniProt P23443, sequence (whole entry, looked up): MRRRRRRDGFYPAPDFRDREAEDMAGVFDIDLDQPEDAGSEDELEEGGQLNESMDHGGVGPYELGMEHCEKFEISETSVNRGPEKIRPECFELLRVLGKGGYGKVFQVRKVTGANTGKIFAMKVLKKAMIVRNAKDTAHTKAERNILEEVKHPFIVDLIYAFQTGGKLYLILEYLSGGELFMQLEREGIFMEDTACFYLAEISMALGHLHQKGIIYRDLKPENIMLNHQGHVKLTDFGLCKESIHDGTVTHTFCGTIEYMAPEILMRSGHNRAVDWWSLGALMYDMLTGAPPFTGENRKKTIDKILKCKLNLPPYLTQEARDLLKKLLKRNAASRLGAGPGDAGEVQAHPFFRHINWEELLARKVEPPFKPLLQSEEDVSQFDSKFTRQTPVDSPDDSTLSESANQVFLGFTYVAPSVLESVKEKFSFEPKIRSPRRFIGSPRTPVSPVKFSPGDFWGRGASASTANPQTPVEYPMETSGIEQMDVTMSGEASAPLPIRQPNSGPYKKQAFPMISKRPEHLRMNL
UniProt Q13557, sequence (whole entry, looked up): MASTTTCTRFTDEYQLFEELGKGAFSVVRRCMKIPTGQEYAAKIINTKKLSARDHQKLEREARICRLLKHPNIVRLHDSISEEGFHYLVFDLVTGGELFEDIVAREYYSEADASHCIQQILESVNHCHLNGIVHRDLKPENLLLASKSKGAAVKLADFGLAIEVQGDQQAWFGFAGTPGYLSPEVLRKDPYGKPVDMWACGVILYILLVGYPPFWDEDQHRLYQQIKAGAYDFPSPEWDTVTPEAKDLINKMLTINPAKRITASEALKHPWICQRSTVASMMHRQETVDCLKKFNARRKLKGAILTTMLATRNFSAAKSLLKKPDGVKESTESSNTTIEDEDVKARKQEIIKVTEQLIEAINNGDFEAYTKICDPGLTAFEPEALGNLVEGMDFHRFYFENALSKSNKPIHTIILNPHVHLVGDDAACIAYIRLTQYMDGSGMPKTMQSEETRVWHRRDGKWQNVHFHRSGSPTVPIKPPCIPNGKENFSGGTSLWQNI

Block 1
Target: CCNF, cyclin fold, Cln2 fusion (human)
Method: yeast growth competition, sequencing
Sample: yeast
Notes: strong parent motif
Baseline: not given
Direction: higher = stronger binding
Starting sequence: CDC6 docking peptide (human); TLKGRRLVFDNQL
| Change | normalised enrichment score |
| --- | --- |
| TLKGRRLVFDNIL [Q12I] | 9.06 |
| TLKGHRLVFDNQL [R5H] | 0.952 |
| TLPGRRLVFDNQL [K3P] | 7.54 |
| TLKGRRLVFDNQE [L13E] | 8.91 |
| TLKGRRLVFDNQY [L13Y] | 9.41 |
| TLKGRRLGFDNQL [V8G] | 3.71 |
| TTKGRRLVFDNQL [L2T] | 7.59 |
| TLKGRRLVFDNQQ [L13Q] | 8.81 |

Block 2
Target: OGT, full length, His-tagged (human)
Method: phage display, sequencing
Sample: in vitro
Tested at: 1 µg OGT
Notes: single substitutions, 15-mer displayed peptide, unchanged parent 5.27
Baseline: input library
Direction: higher = stronger binding
Starting sequence: peptide; GDFPVMFMPKYSIIY
| Change | fold enrichment [fold] |
| --- | --- |
| S12H | 0.268 |
| I13Q | 1.17 |
| D2M | 4.76 |
| I13W | 1.41 |
| F3T | 3.67 |
| V5N | 7.64 |
| K10N | 1.17 |
| M6R | 4.87 |

Block 3
Structure (SMILES): Cc1nc(N2CC[C@@H](O)C2)ncc1-c1cc(C(F)(F)F)cc2[nH]ncc12
Method: competition with immobilised ligand
Tested at: 1 µM
| target | assay | remaining binding [%] |
| --- | --- | --- |
| Serine/threonine-protein kinase LATS2 (LATS2, Homo sapiens, UniProt Q9NRM7) | binding | 26 |
| Tyrosine-protein kinase Blk (BLK, Homo sapiens, UniProt P51451) | cell-free assay | 100 |
| Macrophage colony-stimulating factor 1 receptor, autoinhibited (CSF1R, Homo sapiens, UniProt P07333) | cell-free assay | 82 |
| Myosin-IIIa (MYO3A, Homo sapiens, UniProt Q8NEV4) | binding | 100 |
| Ribosomal protein S6 kinase beta-1 (RPS6KB1, Homo sapiens, UniProt P23443) | binding | 90 |
| Serine/threonine-protein kinase 24 (STK24, Homo sapiens, UniProt Q9Y6E0) | binding | 100 |
| Activin receptor type-2A (ACVR2A, Homo sapiens, UniProt P27037) | cell-free assay | 73 |
| Leukocyte tyrosine kinase receptor (LTK, Homo sapiens, UniProt P29376) | cell-free assay | 87 |
| Tyrosine-protein kinase JAK1, JH2 (JAK1, Homo sapiens, UniProt P23458) | binding | 100 |
| Mitogen-activated protein kinase 14 (MAPK14, Homo sapiens, UniProt Q16539) | binding | 100 |
| Membrane-associated tyrosine- and threonine-specific cdc2-inhibitory kinase (PKMYT1, Homo sapiens, UniProt Q99640) | binding | 100 |
| Receptor tyrosine-protein kinase erbB-2 (ERBB2, Homo sapiens, UniProt P04626) | binding | 87 |
| Mitogen-activated protein kinase kinase kinase 1 (MAP3K1, Homo sapiens, UniProt Q13233) | binding | 60 |
| Receptor-type tyrosine-protein kinase FLT3 (FLT3, Homo sapiens, UniProt P36888, K663Q) | binding | 89 |
| Epidermal growth factor receptor (EGFR, Homo sapiens, UniProt P00533, L858R/T790M) | cell-free assay | 73 |
| Calcium/calmodulin-dependent protein kinase type II subunit beta (CAMK2B, Homo sapiens, UniProt Q13554) | cell-free assay | 100 |
| Receptor-type tyrosine-protein kinase FLT3 (FLT3, Homo sapiens, UniProt P36888, D835Y) | binding | 80 |
| Myosin light chain kinase 2, skeletal/cardiac muscle (MYLK2, Homo sapiens, UniProt Q9H1R3) | binding | 100 |
| Calcium/calmodulin-dependent protein kinase type II subunit delta (CAMK2D, Homo sapiens, UniProt Q13557) | cell-free assay | 100 |
| Serine/threonine-protein kinase RIO1 (RIOK1, Homo sapiens, UniProt Q9BRS2) | binding | 100 |
| Serine/threonine-protein kinase 25 (STK25, Homo sapiens, UniProt O00506) | binding | 100 |

Block 4
Change: T1L
Target: ABI1, truncated, D143A, DHFR fusion (Arabidopsis thaliana)
Method: DHFR PCA, deep sequencing
Sample: yeast
Notes: methotrexate growth selection, single substitutions
Baseline: wild-type fitted maximum
Direction: higher = stronger binding
Starting sequence: PYL1, truncated, DHFR fusion (Arabidopsis thaliana); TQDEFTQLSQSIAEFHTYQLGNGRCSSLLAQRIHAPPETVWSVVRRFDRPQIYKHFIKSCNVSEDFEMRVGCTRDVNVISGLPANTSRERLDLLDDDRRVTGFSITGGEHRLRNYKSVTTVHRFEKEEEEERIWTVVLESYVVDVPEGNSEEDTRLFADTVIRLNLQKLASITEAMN
| conditions | relative binding score |
| --- | --- |
| with: (+)-ABA 710 µM | 99% |
| with: (+)-ABA 200 µM | 97.9% |
| with: (+)-ABA 0.39 µM | 48.3% |
| with: (+)-ABA 0.11 µM | 35.9% |
| with: (+)-ABA 1.4 µM | 60.8% |
| with: (+)-ABA 4.8 µM | 73.6% |

Other studies, line by line
| Substance | tested on | assay | test system | conditions | how to read | measurement | value |
| --- | --- | --- | --- | --- | --- | --- | --- |
| Nc1nc(F)nc2c1ncn2[C@@H]1O[C@H](COP(=O)(O)O)[C@@H](O)[C@@H]1O | Plasmodium berghei | inhibitor | Huh-7, liver stage | 10 µM, 24 h | baseline: untreated control | infection rate | 67.7% |
| PhoQ, residues 284 288 289 292 302 303 GLASVI | PhoP, residues 12 14 15 18 19 SQCLL (Escherichia coli, UniProt P23836) | Sort-seq, item: YFP reporter | E. coli | PhoQ-PhoP variant library, with: 10 µM Mg2+ | baseline: high Mg2+ state, higher = stronger signaling | fold induction | 3.35 |
| CCCNC1=Nc2ccccc2S(=O)(=O)N1CCC | – | – | human, microsomes or S9 | 2 µM, 0.5 h | – | remaining compound | 9.87% |

Repeated from above (block 2):
| Change | fold enrichment [fold] |
| --- | --- |
| I13Q | 1.17 |
| D2M | 4.76 |
| I13W | 1.41 |
| F3T | 3.67 |
